Results from different studies.
Parts stem from different laboratories: compare values within a part only.

Block 1 — cell line: HEK-293T/ACE2; tested at: 10 µM; time: 16 h; reference: vehicle; endpoint: viability
Oc1ccc(OCc2ccccc2)cc1: 87.5%
CC(=O)N[C@@H](CS)C(=O)O: 99.6%
CS(=O)(=O)OCCCCOS(C)(=O)=O: 99.1%
Cc1cccc(Nc2ccccc2C(=O)O)c1C: 101%

Block 2 — method: protein-binding microarray; form: hairpin DNA; sample: in vitro; tested at: not given; reference: not given; direction: higher = stronger binding; endpoint: median fluorescence
Target: Cyclic AMP-responsive element-binding protein 1, full length (CREB1, Homo sapiens, UniProt P16220, residues 1-327)
UniProt P16220, sequence (whole entry, looked up): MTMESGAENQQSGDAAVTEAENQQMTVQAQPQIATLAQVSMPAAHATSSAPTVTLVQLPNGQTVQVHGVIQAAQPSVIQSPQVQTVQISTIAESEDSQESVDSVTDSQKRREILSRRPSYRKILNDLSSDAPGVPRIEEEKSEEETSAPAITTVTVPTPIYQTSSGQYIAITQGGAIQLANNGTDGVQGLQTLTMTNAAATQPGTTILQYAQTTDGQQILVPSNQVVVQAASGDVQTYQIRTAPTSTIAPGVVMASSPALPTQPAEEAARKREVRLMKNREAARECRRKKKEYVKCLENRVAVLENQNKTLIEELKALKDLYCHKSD
Notes: whole hairpin DNA, median over replicate spots
GAGGCCGACGACGTCGTGCCTCCTGGCACGACGTCGTCGGCCTCACACTC (5mC at 9 12 15 29 35): 3170 a.u.
GAGGCCGACGACGTCGTGCCTCCTGGCACGACGTCGTCGGCCTCACACTC (5mC at 9 29 35): 6290 a.u.
GAGGCCGACGACGTCGTGCCTCCTGGCACGACGTCGTCGGCCTCACACTC (5mC at 9 15 35): 3410 a.u.

Block 3 — method: RNA Bind-n-Seq; form: RNA; sample: in vitro; tested at: not given; notes: RNA with constant flanks, ends assumed; reference: input RNA pool; direction: higher = stronger binding; endpoint: bound/input enrichment
Target: RING finger protein unkempt homolog, zinc fingers 1-6, GST-SBP tag (UNK, Homo sapiens, UniProt Q9C0B0, residues 30-357)
All sequences stand within: GGGAGUUCUACAGUCCGACGAUC … CAACAGAGGAUUGAGCAUCA
Residues (chain): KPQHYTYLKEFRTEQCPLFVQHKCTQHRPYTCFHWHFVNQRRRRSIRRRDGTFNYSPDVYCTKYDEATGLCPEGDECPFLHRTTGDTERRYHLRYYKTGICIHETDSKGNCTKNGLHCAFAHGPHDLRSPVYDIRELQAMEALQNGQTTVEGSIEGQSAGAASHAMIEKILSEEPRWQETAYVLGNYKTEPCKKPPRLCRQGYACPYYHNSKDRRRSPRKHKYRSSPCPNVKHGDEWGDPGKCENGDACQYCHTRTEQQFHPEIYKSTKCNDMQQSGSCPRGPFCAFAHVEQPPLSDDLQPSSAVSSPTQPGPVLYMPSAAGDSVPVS
AAUAAAGCUGUUGUGUUGCGGGGCCAUGAAUCUGAAGUUUUUAUCUGUGCCUGGAACCCUGUCCGUGAUCUCCUAGCAUCAGGGUCUGGAGACUCAACAGCAAGAAUAUGGAAUCUUAGU: 0.357 ratio
ACAUCUGCAGAUAAAGUGGAGAGUCUGGAUGUGGAUAGUGAAGCUAAGAAACUAUUGGGUUCCGGACAGAAACAUCUGGUGAUGGGGGAUAUUCCAGCAGCUGUCAAUGCAUUCCAGGAA: 0.215 ratio
AUUCACAGAUUUAUUGUGAACACUCUGAAAGACGGAAGGAGAGUAGUUAUCUUGAUGGAAUCCGAAGUUUUGAAGUCAGCUGAAGCAGUUGGAGUGAAGAUUGGCAAUCCAGUGCCCUAU: 0.293 ratio
AGGAAGCAGCAGUUUUGUUGGCAUGUCAAGCUCCAGUUUCCUCAGAGUCAAGCAGAGUACACCGAAAAAAGAGUACCAGAUGAUAAAACUAUUAAUGAAAUUCUAAAGCCUUACAUCGAU: 0.422 ratio
CUGUUGGAUGGAUUUCCAAGGACACUUCCACAGGCAGAAGCCCUGGAUAAAGUUUAUCAGACCGACACAGUGAUAAAUCUCAACGUGCCCUUUGAGGUCAUUAAACAGCGCCUUACUGCU: 0.0865 ratio
UGCUGUACUCUUGCUGAUGGCUGCUAGAUUUUAAUUUAUUUGUUUCCCUACUUGAUAAUAUCCGUGAUUCUGAUUUCAGUUUUUCAUUUGUUUUGCUUUUGUUUUUUUCCUCAUGUAACA: 17.9 ratio
GGGAAACAGUUUGAUUCUCCCAUGCCAAGUCCCUUUCAAGGGGGAAGCUUCACUCUUCCUUCCGAUGUCAUGAAGAAUGAAAUAGUUACAGAAACAUCGCCCUUUGCCCCUGCCUUUUUA: 0.198 ratio
CCUUGGCACUGGCCUCCAGCAAGCCCUGUUCUCUUUGGGGUACAGGGGAACGGGAUGGUUCCGACUUUCCUGCUCAGUGUGUAAAAAAUGUAGCUAAAGCCACUAUUUUUGCUCUCCUUA: 0.206 ratio

Block 4 — action: inhibitor; tested at: 20 µM; endpoint: inhibition
Target: Replicase polyprotein 1ab, nsp13 helicase (rep, Severe acute respiratory syndrome coronavirus 2, UniProt P0DTD1)
C[C@]12CCC(=O)C(O)=C1CC[C@@H]1[C@@H]2CC[C@]2(C)C(=O)CC[C@@H]12: -0.47%
COc1cc(C[C@H]2c3cc(OC)c(OC)cc3CCN2C)c(Oc2cc3c(cc2OC)-c2c(OC)c(OC)cc4c2[C@H](C3)N(C)CC4)cc1OC: 21.4%
COc1cc(OC)c(OC)cc1C=O: 4.52%
Cc1cn(-c2cc(NC(=O)c3ccc(C)c(Nc4nccc(-c5cccnc5)n4)c3)cc(C(F)(F)F)c2)cn1: 15.9%
COc1ccccc1N1CCN(CCCCNC(=O)c2ccc(-c3ccc(C(C)=O)cc3)cc2)CC1: 8.13%
CCN1CCN(C(=O)N[C@@H](C(=O)N[C@@H]2C(=O)N3[C@@H]2SC(C)(C)[C@@H]3C(=O)O)c2ccccc2)C(=O)C1=O: -0.8%
CCCCCCCCOc1ccccc1C(=O)Nc1ccc(C(=O)OCC[N+](C)(CC)CC)cc1: 37.7%
O=C(O)[C@@H](c1ccc(OCc2ccc3ccccc3n2)cc1)C1CCCC1: 7.28%
CC(C)C[C@@H](NC(=O)[C@H](Cc1ccccc1)NC(=O)CNC(=O)[C@@H](C)NC(=O)[C@@H](N)Cc1ccc(O)cc1)C(=O)O: -1.31%
CS(=O)(=O)c1ccc(-c2nnc(/C=C/c3nnc(-c4ccc(C#N)cc4)o3)n2-c2ccccc2Cl)nc1: -1.14%
CCn1cc(C(=O)O)c(=O)c2cc(F)c(N3CCNCC3)cc21: 2.3%
COc1cc2ncnc(Nc3ccc(Oc4ccccc4)cc3)c2cc1OC: 3.52%
C[C@H](CCC(=O)O)[C@H]1CC[C@H]2[C@@H]3[C@H](O)C[C@@H]4C[C@H](O)CC[C@]4(C)[C@H]3CC[C@]12C: 10.3%
C[C@@]1(O)[C@H](O)[C@@H](CO)O[C@H]1n1cnc2c(NC3CCCC3)nc(Cl)nc21: -3.65%
Nc1nc(CC(=O)Nc2ccc(CCNC[C@H](O)c3ccccc3)cc2)cs1: 1.46%
NS(=O)(=O)c1cc(Cl)c(Cl)c(S(N)(=O)=O)c1: 4.05%
COc1ccc(-c2coc3cc(O)ccc3c2=O)cc1: 1.33%
CC(C)OC(=O)CNC(=O)[C@H](CS)NC(=O)CC[C@H](N)C(=O)O: 3.55%
CC(=O)NCCCS(=O)(=O)O: 3.64%
C1CCC(N=C(NC23CC4CC(CC(C4)C2)C3)N2CCOCC2)CC1: 2.14%
O=C(Nc1ccncc1)C(=O)c1cn(Cc2ccc(Cl)cc2)c2ccccc12: -3.27%
Cc1ccc(Oc2ccccc2-c2csc(N=C3NCCCN3)n2)c(C)c1: -0.63%
CN1CCc2cc3c(cc2[C@H]1[C@@H]1OC(=O)c2c1ccc1c2OCO1)OCO3: 2.51%
NS(=O)(=O)Cc1noc2ccccc12: 0.73%
CC(=O)OCC1=C(C(=O)O)N2C(=O)[C@@H](NC(=O)CSC(=NC(C)C)NC(C)C)[C@H]2SC1: 22.2%

Block 5 — method: Spec-seq; form: double-stranded DNA, one strand shown; sample: in vitro; tested at: not given; notes: whole probe, mean of replicates; reference: not given; direction: lower = stronger binding; endpoint: relative binding energy; all sequences stand within: GAGTCGTCTCGTCAGCAC … CCGTAGAGCACTCAGGTC
Target: POU, POU domain (Salpingoeca helianthica)
Construct (chain): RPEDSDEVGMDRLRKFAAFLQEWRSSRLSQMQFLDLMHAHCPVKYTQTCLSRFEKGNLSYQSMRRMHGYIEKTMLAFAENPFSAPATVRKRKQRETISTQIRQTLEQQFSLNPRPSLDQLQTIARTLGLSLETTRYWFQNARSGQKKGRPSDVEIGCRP
ATGCCAGA: 1.19 ln ratio
ATGCGTCC: 1.04 ln ratio
CAGTTAAT: -0.559 ln ratio
ACACTAAT: 0.419 ln ratio
ATGCGGTA: 1.46 ln ratio

Block 6 — effect on: enzyme activity; action: inhibitor; tested at: 20 µM; notes: primary screen; endpoint: inhibition
Target: Replicase polyprotein 1ab, main protease (rep, Severe acute respiratory syndrome coronavirus 2, UniProt P0DTD1)
O=C1C(=Cc2cccnc2)C(=O)c2ccccc21: 81%
O=NN(CCCl)C(=O)NC1CCCCC1: 62%
Oc1cc(O)c2cc(O)c(-c3cc(O)c(O)c(O)c3)[o+]c2c1: 40.7%

Block 7 — method: protein binding microarray; form: double-stranded DNA, one strand shown; sample: in vitro; tested at: not given; reference: not given; direction: higher = stronger binding; endpoint: E-score
Target: Histone acetyltransferase KAT6A, winged helix 1, GST fusion (KAT6A, Homo sapiens, UniProt Q92794, residues 1-85)
Notes: 8-mer, flanks averaged, mean of 2 arrays, mostly near background
Construct (chain): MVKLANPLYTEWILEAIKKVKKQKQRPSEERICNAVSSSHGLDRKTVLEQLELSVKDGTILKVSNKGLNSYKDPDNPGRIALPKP
AAAGCATC: 0.128
GCGGGGCC: 0.424
AACACATC: -0.158
CGCGCTCA: 0.31
AGCCTAAA: -0.258
AGGTCTTA: -0.133
AATCGATT: -0.0177
AGGTAACC: 0.0845
